Assay results of several laboratories.
Lines come from different studies, so protocols differ. ± marks the error that the study gave. Converted amounts (≈) assume the structure as drawn.
Sequence of UniProt Q70CQ1 (whole entry, looked up): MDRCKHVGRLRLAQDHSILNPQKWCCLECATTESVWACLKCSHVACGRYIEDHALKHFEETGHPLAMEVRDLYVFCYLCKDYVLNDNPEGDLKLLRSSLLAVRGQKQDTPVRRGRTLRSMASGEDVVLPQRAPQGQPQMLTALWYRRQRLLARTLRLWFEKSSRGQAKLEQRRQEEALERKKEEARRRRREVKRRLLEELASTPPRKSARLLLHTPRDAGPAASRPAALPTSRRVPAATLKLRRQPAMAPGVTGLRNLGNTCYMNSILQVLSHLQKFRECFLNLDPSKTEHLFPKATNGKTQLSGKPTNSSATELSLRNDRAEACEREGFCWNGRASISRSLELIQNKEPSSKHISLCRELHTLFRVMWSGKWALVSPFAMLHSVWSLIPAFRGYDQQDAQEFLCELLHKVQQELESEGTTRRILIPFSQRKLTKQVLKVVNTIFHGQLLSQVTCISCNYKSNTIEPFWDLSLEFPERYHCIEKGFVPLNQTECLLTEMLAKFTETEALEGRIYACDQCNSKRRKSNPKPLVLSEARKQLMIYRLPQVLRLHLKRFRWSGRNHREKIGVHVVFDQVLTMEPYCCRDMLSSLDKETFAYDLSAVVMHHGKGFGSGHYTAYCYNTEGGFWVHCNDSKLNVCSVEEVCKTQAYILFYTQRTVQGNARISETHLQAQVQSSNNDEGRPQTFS
Sequence of UniProt Q9Y2K6 (whole entry, looked up): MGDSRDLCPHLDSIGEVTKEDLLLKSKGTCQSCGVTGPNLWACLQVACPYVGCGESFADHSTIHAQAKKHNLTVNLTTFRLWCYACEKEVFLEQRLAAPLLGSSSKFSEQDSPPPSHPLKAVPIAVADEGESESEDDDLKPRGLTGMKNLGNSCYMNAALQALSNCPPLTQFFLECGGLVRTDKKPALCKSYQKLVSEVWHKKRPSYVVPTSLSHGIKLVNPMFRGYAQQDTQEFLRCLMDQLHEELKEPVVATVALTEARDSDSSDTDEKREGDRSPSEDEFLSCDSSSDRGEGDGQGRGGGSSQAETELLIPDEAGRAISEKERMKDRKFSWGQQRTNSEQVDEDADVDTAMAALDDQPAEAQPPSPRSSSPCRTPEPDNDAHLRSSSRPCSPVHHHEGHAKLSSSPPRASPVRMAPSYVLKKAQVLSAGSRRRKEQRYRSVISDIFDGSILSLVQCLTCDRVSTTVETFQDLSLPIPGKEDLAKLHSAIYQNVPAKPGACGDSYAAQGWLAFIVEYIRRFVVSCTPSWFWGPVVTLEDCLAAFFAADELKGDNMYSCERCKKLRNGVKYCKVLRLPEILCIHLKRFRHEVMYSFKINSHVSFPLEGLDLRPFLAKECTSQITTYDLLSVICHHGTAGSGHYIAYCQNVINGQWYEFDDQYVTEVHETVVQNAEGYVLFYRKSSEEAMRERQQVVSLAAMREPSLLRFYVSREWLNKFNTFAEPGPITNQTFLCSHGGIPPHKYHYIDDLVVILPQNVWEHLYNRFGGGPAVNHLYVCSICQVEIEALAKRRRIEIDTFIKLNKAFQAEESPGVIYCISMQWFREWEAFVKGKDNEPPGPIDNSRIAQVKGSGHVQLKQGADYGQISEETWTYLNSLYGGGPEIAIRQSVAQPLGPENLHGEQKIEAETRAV

Structure (SMILES) | target or system | test | system | setting | scale | measurement | value
O=C(O)CNc1ncnc2ccccc12 | Ubiquitin carboxyl-terminal hydrolase 20, ZnF-UBD domain (USP20, Homo sapiens, UniProt Q9Y2K6) | – | – | – | – | Kd | > 1000 µM
CC(C)C[C@H](NC(=O)C[C@H](O)[C@H](CC(C)C)NC(=O)[C@H](Cc1c[nH]cn1)NC(=O)CNC(=O)[C@@H](NC(=O)[C@H](C)NC(=O)[C@H](Cc1c[nH]c2ccccc12)NC(=O)[C@H](CCC(N)=O)NC(=O)[C@@H](Cc1ccccc1)NC(=O)COCCOCCNC(=O)CCC(C(=O)O)N1CCN(CC(=O)O)CCN(CC(=O)O)CC1)C(C)C)C(N)=O (stereo partly shown) [lutetium-177 labelled] | – | – | female BALB/c nu/nu mice, lung | intravenous, 50 pmol, 24 h | – | tissue uptake | 0.07 ± 0.04 %ID/g
COc1cc2c(Oc3ccc4[nH]c(C)cc4c3F)ncnc2cc1OCCCN1CCCC1 | NLRP3 inflammasome (mouse) | – | mouse BMDM | 10 µM | – | inhibition | 28.9%
Cc1ncc(CO)c(C=O)c1O | – | binding, equilibrium dialysis LC-MS | – | 5 µM, thermostabilized A2AR-BRIL construct | baseline: no-protein control, direction not given | z-scored log2 fold change | 0.509
CC(C)C[C@H](NC(=O)C[C@H](O)[C@H](CC(C)C)NC(=O)[C@H](Cc1c[nH]cn1)NC(=O)CNC(=O)[C@@H](NC(=O)[C@H](C)NC(=O)[C@H](Cc1c[nH]c2ccccc12)NC(=O)[C@H](CCC(N)=O)NC(=O)[C@@H](Cc1ccccc1)NC(=O)COCCOCCNC(=O)CCC(C(=O)O)N1CCN(CC(=O)O)CCN(CC(=O)O)CCN(CC(=O)O)CC1)C(C)C)C(N)=O (stereo partly shown) [lutetium-177 labelled] | – | – | female BALB/c nu/nu mice, muscle | intravenous, 50 pmol, 24 h | – | tissue uptake | 0.04 ± 0.04 %ID/g
Cc1cccc(C)c1N(CC(=O)Nc1ccc(-c2ncon2)cc1)C(=O)C1CCS(=O)(=O)CC1 | human alphaherpesvirus 1 | – | K26 GFP, 3D skin equivalent, air-liquid | – | baseline: CC50 over IC50 | selectivity index | > 66.7
Nc1nc2c(c(=O)[nH]1)N=C(CNc1ccc(C(=O)N[C@@H](CCC(=O)O)C(=O)O)cc1)CN2 | – | binding, equilibrium dialysis LC-MS | – | 5 µM, thermostabilized A2AR-BRIL construct | baseline: no-protein control, direction not given | z-scored log2 fold change | 1.66
Oc1cccc(-c2nc(N3CCOCC3)c3oc4ncccc4c3n2)c1 | iCell Cardiomyocytes (hiPSC-derived) | CellTiter-Glo | – | concentration not given, 24 h | baseline: control | ATP level | 69.6%
Cn1ncc(Cl)c1-c1cc(C(=O)N[C@H](CN)Cc2ccc(F)c(F)c2)oc1Cl | NLRP3 inflammasome (mouse) | – | mouse BMDM | 10 µM | – | inhibition | 53.8%
CCN(CC)CCNC(=O)c1c(C)[nH]c(/C=C2\C(=O)Nc3ccc(F)cc32)c1C | iCell Cardiomyocytes (hiPSC-derived) | xCELLigence Cardio impedance | – | concentration not given, 2 h | baseline: control | beat amplitude | 113%
CCS(=O)(=O)N1CCN(c2ccc(Nc3ncc(C(N)=O)c(NC4CC4)n3)cc2)CC1 | NLRP3 inflammasome (mouse) | – | mouse BMDM | 10 µM | – | inhibition | 16%
COc1cc(Nc2c(C#N)cnc3cc(OCCCN4CCN(C)CC4)c(OC)cc23)c(Cl)cc1Cl | iCell Cardiomyocytes (hiPSC-derived) | xCELLigence Cardio impedance | – | concentration not given, 2 h | baseline: control | beat rate | 66.5%
N[C@@H](CCC(=O)O)C(=O)O | – | binding, equilibrium dialysis LC-MS | – | 5 µM, thermostabilized A2AR-BRIL construct | baseline: no-protein control, direction not given | z-scored log2 fold change | 0.212
O=C(O)CNC(=O)c1ccc(C(=O)N2CCC(c3ccc(Cl)cc3)CC2)cn1 | Ubiquitin carboxyl-terminal hydrolase 49, ZnF-UBD domain (USP49, Homo sapiens, UniProt Q70CQ1) | – | – | – | – | Kd | > 1000 µM
C[S+]([O-])c1ccc(-c2nc(-c3ccncc3)c(-c3ccc(F)cc3)[nH]2)cc1 (stereo not shown) | iCell Cardiomyocytes (hiPSC-derived) | CellTiter-Glo | – | concentration not given, 24 h | baseline: control | ATP level | 97.1%
CN[C@H](CC(C)C)C(=O)N[C@H]1C(=O)N[C@@H](CC(N)=O)C(=O)N[C@H]2C(=O)N[C@H]3C(=O)N[C@H](C(=O)N[C@H](C(=O)O)c4cc(O)cc(O)c4-c4cc3ccc4O)[C@H](O)c3ccc(c(Cl)c3)Oc3cc2cc(c3O[C@@H]2O[C@H](CO)[C@@H](O)[C@H](O)[C@H]2O[C@H]2C[C@](C)(N)[C@H](O)[C@H](C)O2)Oc2ccc(cc2Cl)[C@H]1O | Staphylococcus aureus | – | MRSA, 10 isolates | serum 75% | – | MIC50 | 4 µg/mL (≈ 2.76 µM)
Cn1cc(-c2ccc(-c3cncc(Cl)c3N3CCC4(CCNC4=O)CC3)cc2)cn1 | COLO 205 | microarray, refers to: BCL2L1 | – | concentration not given, 2 h, gene set Bcl-XL | baseline: untreated cells | fold change in expression | 2.24
O=C(/C=C\n1cnc(-c2cc(C(F)(F)F)cc(C(F)(F)F)c2)n1)NNc1ccccn1 | human alphaherpesvirus 1 | live-cell GFP imaging | primary human fibroblasts, K26 GFP | – | – | IC50 | > 60 µM
Cn1cnc2c(F)c(Nc3ccc(Br)cc3Cl)c(C(=O)NOCCO)cc21 | NLRP3 inflammasome (mouse) | – | mouse BMDM | 10 µM | – | inhibition | -14.1%
OC[C@H]1O[C@H](O[C@H]2O[C@H](CO)[C@@H](O)[C@H](O)[C@H]2O)[C@H](O)[C@@H](O)[C@@H]1O | – | binding, equilibrium dialysis LC-MS | – | 5 µM, thermostabilized A2AR-BRIL construct | baseline: no-protein control, direction not given | z-scored log2 fold change | 0.0582
CCc1cc2c(cc1N1CCC(N3CCOCC3)CC1)C(C)(C)c1[nH]c3cc(C#N)ccc3c1C2=O | NLRP3 inflammasome (mouse) | – | mouse BMDM | 10 µM | – | inhibition | 43.8%
CC(=O)NCCCCN | – | binding, equilibrium dialysis LC-MS | – | 5 µM, thermostabilized A2AR-BRIL construct | baseline: no-protein control, direction not given | z-scored log2 fold change | 0.291
CCn1cc(-c2cc(Cn3ccoc3=N)cc3c2CCN([C@@H](C)c2cc(OC)ccn2)C3=O)c(C(F)(F)F)n1 | AN3-CA | cell growth, inhibitor | – | 120 h | – | EC50 | 0.861 µM
CC[C@H](N)C(=O)O | – | binding, equilibrium dialysis LC-MS | – | 5 µM, thermostabilized A2AR-BRIL construct | baseline: no-protein control, direction not given | z-scored log2 fold change | 0.285
O=C(/C=C/C=C/C=C/C1CCCCC1)NC1=C[C@@](O)(/C=C/C=C/C=C/C(=O)NC2=C(O)CCC2=O)[C@@H]2O[C@@H]2C1=O | GP2d | cell growth, CellTiter-Glo | – | 78 h | – | GI50 | 11.9 µM

Some of these lines once more:
Structure (SMILES) | target or system | test | system | setting | scale | measurement | value
O=C(O)CNC(=O)c1ccc(C(=O)N2CCC(c3ccc(Cl)cc3)CC2)cn1 | Ubiquitin carboxyl-terminal hydrolase 49, ZnF-UBD domain (USP49, Homo sapiens, UniProt Q70CQ1) | – | – | – | – | Kd | > 1000 µM
C[S+]([O-])c1ccc(-c2nc(-c3ccncc3)c(-c3ccc(F)cc3)[nH]2)cc1 (stereo not shown) | iCell Cardiomyocytes (hiPSC-derived) | CellTiter-Glo | – | concentration not given, 24 h | baseline: control | ATP level | 97.1%
CN[C@H](CC(C)C)C(=O)N[C@H]1C(=O)N[C@@H](CC(N)=O)C(=O)N[C@H]2C(=O)N[C@H]3C(=O)N[C@H](C(=O)N[C@H](C(=O)O)c4cc(O)cc(O)c4-c4cc3ccc4O)[C@H](O)c3ccc(c(Cl)c3)Oc3cc2cc(c3O[C@@H]2O[C@H](CO)[C@@H](O)[C@H](O)[C@H]2O[C@H]2C[C@](C)(N)[C@H](O)[C@H](C)O2)Oc2ccc(cc2Cl)[C@H]1O | Staphylococcus aureus | – | MRSA, 10 isolates | serum 75% | – | MIC50 | 4 µg/mL (≈ 2.76 µM)
Cn1cc(-c2ccc(-c3cncc(Cl)c3N3CCC4(CCNC4=O)CC3)cc2)cn1 | COLO 205 | microarray, refers to: BCL2L1 | – | concentration not given, 2 h, gene set Bcl-XL | baseline: untreated cells | fold change in expression | 2.24
